Measured values from different studies.
A part holds a random share of what one study measured.
Sequence of UniProt P50750 (whole entry, looked up): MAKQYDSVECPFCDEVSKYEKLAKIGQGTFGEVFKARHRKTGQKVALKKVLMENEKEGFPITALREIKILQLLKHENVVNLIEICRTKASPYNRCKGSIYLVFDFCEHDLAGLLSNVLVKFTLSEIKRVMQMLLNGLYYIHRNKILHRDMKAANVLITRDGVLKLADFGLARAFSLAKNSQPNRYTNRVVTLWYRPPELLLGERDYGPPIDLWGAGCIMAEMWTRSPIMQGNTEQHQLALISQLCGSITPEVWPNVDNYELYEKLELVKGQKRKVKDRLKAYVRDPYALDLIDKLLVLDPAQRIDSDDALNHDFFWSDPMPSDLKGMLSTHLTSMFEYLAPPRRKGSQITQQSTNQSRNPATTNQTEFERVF
Sequence of UniProt P42336 (whole entry, unmodified, looked up): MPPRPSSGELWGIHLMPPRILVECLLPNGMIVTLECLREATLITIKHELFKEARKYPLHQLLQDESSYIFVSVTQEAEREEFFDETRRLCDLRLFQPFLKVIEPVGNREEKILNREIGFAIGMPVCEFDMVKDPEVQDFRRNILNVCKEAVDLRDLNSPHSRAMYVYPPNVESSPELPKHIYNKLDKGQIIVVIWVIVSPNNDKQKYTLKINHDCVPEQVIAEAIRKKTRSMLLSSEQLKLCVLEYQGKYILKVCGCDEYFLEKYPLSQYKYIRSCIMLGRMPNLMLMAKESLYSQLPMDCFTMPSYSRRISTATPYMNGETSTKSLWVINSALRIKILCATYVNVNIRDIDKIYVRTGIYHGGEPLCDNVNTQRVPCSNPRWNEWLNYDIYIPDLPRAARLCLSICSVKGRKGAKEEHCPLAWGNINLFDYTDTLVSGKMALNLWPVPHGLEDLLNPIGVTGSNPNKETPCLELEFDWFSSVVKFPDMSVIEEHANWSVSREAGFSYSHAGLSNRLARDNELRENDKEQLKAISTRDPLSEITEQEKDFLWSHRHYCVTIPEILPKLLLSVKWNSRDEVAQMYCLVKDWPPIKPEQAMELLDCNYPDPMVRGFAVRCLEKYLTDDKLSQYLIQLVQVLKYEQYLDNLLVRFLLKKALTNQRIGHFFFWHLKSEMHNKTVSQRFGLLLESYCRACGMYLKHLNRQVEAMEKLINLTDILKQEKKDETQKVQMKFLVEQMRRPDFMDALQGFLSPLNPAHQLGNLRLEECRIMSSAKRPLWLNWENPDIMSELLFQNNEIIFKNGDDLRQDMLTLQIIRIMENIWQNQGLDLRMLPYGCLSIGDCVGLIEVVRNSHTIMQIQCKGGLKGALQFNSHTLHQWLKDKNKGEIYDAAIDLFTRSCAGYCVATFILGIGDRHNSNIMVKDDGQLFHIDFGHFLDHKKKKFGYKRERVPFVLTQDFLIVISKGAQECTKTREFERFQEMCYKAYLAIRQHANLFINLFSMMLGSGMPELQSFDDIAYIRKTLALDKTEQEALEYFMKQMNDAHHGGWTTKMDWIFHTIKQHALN
Sequence of UniProt O95835 (whole entry, looked up): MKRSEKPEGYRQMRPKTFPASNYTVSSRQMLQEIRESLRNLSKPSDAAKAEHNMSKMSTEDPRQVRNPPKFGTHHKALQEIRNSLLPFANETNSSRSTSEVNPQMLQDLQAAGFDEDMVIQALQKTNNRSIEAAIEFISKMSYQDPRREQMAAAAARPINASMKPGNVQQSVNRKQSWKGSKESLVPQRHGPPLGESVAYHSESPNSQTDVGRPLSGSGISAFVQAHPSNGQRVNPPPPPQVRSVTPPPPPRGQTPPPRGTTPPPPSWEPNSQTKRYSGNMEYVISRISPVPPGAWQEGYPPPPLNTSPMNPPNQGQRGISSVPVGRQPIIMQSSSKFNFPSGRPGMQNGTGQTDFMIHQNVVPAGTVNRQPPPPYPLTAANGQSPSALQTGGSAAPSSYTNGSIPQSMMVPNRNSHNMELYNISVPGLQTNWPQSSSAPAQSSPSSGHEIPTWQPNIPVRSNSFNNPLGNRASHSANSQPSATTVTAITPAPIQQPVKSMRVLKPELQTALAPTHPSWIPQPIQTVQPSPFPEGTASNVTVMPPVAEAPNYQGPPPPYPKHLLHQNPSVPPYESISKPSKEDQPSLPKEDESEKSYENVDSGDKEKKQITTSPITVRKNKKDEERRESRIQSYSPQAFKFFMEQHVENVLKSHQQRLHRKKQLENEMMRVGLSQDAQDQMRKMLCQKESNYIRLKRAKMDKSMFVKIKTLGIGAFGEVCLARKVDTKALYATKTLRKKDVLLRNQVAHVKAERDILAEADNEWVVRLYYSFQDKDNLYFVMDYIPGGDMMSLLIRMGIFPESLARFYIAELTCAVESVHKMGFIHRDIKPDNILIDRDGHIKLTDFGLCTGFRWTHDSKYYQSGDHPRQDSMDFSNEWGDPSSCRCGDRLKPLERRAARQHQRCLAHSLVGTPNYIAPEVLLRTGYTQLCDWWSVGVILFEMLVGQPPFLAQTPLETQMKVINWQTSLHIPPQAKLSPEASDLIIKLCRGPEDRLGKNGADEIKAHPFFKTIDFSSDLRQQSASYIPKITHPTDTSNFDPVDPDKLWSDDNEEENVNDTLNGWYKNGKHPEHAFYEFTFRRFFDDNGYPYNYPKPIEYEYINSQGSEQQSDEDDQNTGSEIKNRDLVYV
Sequence of UniProt P36894 (whole entry, looked up): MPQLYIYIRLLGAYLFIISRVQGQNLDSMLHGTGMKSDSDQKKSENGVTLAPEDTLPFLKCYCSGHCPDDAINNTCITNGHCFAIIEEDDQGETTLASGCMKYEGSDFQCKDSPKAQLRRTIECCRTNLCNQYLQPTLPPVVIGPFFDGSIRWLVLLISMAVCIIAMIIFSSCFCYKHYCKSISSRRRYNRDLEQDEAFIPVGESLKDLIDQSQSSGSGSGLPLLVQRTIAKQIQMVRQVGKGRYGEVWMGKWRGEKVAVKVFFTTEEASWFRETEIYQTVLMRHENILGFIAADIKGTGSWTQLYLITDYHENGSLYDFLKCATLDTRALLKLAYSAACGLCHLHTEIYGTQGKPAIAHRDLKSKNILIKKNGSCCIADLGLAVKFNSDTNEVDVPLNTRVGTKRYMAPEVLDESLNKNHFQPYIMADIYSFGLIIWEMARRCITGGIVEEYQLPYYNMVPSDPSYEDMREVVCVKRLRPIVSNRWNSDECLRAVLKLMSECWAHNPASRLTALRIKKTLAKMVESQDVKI
Sequence of UniProt P50613 (whole entry, looked up): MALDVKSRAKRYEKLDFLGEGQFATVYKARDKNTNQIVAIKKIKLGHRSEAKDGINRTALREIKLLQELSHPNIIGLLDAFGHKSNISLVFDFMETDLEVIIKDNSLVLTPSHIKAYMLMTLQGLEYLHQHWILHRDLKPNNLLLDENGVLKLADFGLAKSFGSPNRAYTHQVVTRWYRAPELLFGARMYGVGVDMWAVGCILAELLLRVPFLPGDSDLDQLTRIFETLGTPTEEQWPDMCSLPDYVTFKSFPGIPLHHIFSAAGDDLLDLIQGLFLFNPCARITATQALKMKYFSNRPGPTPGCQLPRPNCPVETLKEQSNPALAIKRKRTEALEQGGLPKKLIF

Series 1
Target: Synaptic vesicular amine transporter (SLC18A2, Homo sapiens, UniProt Q05940)
Sequence of UniProt Q05940 (whole entry, looked up): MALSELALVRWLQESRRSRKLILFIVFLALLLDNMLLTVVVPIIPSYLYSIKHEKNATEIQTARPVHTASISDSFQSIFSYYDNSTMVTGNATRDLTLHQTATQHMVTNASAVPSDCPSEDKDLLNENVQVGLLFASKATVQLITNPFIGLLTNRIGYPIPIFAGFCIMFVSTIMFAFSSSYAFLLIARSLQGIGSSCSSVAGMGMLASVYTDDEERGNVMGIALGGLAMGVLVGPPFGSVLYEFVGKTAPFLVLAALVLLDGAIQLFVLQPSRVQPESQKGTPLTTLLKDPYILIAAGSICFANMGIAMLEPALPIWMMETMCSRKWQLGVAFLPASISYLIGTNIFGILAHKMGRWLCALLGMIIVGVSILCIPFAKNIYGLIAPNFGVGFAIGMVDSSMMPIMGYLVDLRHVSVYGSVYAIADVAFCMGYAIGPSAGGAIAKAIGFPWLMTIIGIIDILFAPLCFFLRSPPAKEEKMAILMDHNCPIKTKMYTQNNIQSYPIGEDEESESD
Action: inhibitor
Notes: literature data
C[C@H](NCc1ccc(OCc2cccc(F)c2)cc1)C(N)=O gave an IC50 of > 10 µM.
COCCCN1CCC(NC(=O)c2cc(Cl)c(N)c3c2OCC3)CC1 gave an IC50 of 1.9 µM.
Clc1ccc(CCCOCCCN2CCCCC2)cc1 gave an IC50 of 3.64 µM.
COc1ccc(CC(C)(C)NC[C@H](O)c2cc(O)cc3c2OCC(=O)N3)cc1 has an IC50 of 1.43 µM.
For CS(=O)(=O)CCNCc1ccc(-c2ccc3ncnc(Nc4ccc(OCc5cccc(F)c5)c(Cl)c4)c3c2)o1, the IC50 was 5.5 µM.
COCCCC/C(=N\OCCN)c1ccc(C(F)(F)F)cc1 has an IC50 of 21.3 µM.
CCOc1ccccc1OCCN[C@H](C)Cc1ccc(OC)c(S(N)(=O)=O)c1 has an IC50 of 1.86 µM.
For CCN(CC)CC#CCOC(=O)C(O)(c1ccccc1)C1CCCCC1 (stereo not shown), the IC50 was 6.81 µM.
CC(COc1ccccc1)NC(C)C(O)c1ccc(O)cc1 (stereo not shown) gave an IC50 of 3.93 µM.
N[C@@H]1c2cccnc2[C@H](OC(=O)N2CCC(n3c(=O)[nH]c4ncccc43)CC2)CC[C@H]1c1cccc(F)c1F gave an IC50 of > 10 µM.
CCCCN(CCCC)CCC(O)c1cc2c(Cl)cc(Cl)cc2c2cc(C(F)(F)F)ccc12 (stereo not shown) has an IC50 of 0.94 µM.
With N#Cc1ccc(C(c2ccc(C#N)cc2)n2cncn2)cc1 the IC50 was > 10 µM.
N#CC[C@H](C1CCCC1)n1cc(-c2ncnc3[nH]ccc23)cn1 gave an IC50 of > 10 µM.
For CC12CC3CC(C)(C1)CC(N)(C3)C2, the IC50 was > 10 µM.
CC(C)(C)NC(=O)[C@@H]1CN(Cc2cccnc2)CCN1C[C@@H](O)C[C@@H](Cc1ccccc1)C(=O)N[C@H]1c2ccccc2C[C@H]1O has an IC50 of > 10 µM.

Series 2
Cell line: Huh-7
Tested at: 10 µM
Time: 24 h
CC(=O)Nc1ccc(O)cc1 has a viability of 98.6%.
With COc1cc(NC(C)CCCN)c2ncccc2c1 (stereo not shown) the viability was 94.8%.
The viability of CC(C)CCCC(C)N (stereo not shown) is reported as 98%.
The viability of COc1ccc(C2C(=O)c3ccccc3C2=O)cc1 is reported as 100%.
For C[C@]12CC[C@@H]3c4ccc(O)cc4CC[C@H]3[C@@H]1C[C@@H](O)[C@@H]2O, the viability was 98.4%.
For C[C@H](N)[C@H](O)c1cccc(O)c1, the viability was 91.5%.
CC[C@H](C)C(=O)O[C@H]1C[C@@H](C)C=C2C=C[C@H](C)[C@H](CC[C@@H]3C[C@@H](O)CC(=O)O3)[C@H]21 gave a viability of 91.9%.
CCCCOc1ccc(C(=O)CCN2CCCCC2)cc1 gave a viability of 93.9%.
The viability of CCc1cccc2c3c([nH]c12)C(CC)(CC(=O)O)OCC3 (stereo not shown) is reported as 105%.
C[C@]12CCC(=O)C=C1CC[C@@H]1[C@@H]2C(=O)C[C@@]2(C)[C@H]1CC[C@]2(O)C(=O)CO gave a viability of 95.2%.
The viability of COc1ccnc(C[S+]([O-])c2nc3ccc(OC(F)F)cc3[nH]2)c1OC (stereo not shown) is reported as 95.4%.
CS(=O)(=O)c1ccc([C@@H](O)[C@@H](CO)NC(=O)C(Cl)Cl)cc1 gave a viability of 96%.
The viability of CC(=O)NS(=O)(=O)c1ccc(N)cc1 is reported as 99.7%.
For COC(=O)C1=C(C)NC(C)=C(C(=O)OCCN(C)Cc2ccccc2)C1c1cccc([N+](=O)[O-])c1 (stereo not shown), the viability was 94.8%.

Series 3
Compound: C[C@@H]1CN(c2cc(-c3nn(C)c4ccc(OC5(C)CC5)cc34)ncn2)C[C@H](C)O1
Technique: competition with immobilised ligand
Tested at: 1 µM
The remaining binding was 83% (PIK3CA (Homo sapiens, UniProt P42336, H1047L); cell-free assay).
For LATS1 (Homo sapiens, UniProt O95835); cell-free assay: remaining binding read 100%.
It gave 84% for remaining binding (CDK9 (Homo sapiens, UniProt P50750); cell-free assay).
PIK3CB (Homo sapiens, UniProt P42338); cell-free assay — remaining binding: 100%.
The remaining binding was 89% (BUB1 (Homo sapiens, UniProt O43683); cell-free assay).
CDC42BPA (Homo sapiens, UniProt Q5VT25); cell-free assay — remaining binding: 89%.
The remaining binding was 85% (BMPR1A (Homo sapiens, UniProt P36894); binding).
The remaining binding was 57% (CHEK1 (Homo sapiens, UniProt O14757); cell-free assay).
The remaining binding was 100% (CDK7 (Homo sapiens, UniProt P50613); cell-free assay).
CSF1R (Homo sapiens, UniProt P07333); cell-free assay — remaining binding: 100%.
For ACVR2B (Homo sapiens, UniProt Q13705); cell-free assay: remaining binding read 98%.
The remaining binding was 89% (SYK (Homo sapiens, UniProt P43405); cell-free assay).
The remaining binding was 100% (EPHB6 (Homo sapiens, UniProt O15197); cell-free assay).

Series 4
Target: NUAK family SNF1-like kinase 2 (NUAK2, Homo sapiens, UniProt Q9H093)
Sequence of UniProt Q9H093 (whole entry, looked up): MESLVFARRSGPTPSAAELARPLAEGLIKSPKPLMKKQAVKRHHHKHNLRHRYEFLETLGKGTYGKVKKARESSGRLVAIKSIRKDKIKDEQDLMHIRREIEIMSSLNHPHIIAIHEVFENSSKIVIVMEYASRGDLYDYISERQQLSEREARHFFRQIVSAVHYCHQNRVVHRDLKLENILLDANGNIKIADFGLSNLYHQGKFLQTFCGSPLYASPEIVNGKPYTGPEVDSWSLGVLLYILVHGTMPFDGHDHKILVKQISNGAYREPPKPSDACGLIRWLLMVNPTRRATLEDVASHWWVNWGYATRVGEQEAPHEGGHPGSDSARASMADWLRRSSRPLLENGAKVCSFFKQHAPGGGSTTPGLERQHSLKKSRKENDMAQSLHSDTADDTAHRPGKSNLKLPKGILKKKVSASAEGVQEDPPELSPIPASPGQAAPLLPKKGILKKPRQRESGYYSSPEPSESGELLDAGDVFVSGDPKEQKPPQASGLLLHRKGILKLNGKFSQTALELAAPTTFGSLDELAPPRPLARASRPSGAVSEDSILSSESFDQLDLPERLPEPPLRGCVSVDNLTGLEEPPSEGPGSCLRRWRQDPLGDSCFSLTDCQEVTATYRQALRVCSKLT
Observed: enzyme activity
Action: inhibitor
Tested at: 0.5 µM
Relative to: control
COc1cc2ncc(-c3ccccc3)nc2cc1OC gave a remaining activity of 133%.
For COc1ccc(Cl)cc1NC(=O)Nc1cc(C)nc2ccccc12, the remaining activity was 100%.
CCN1/C(=C/C(C)=O)Sc2ccc(OC)cc21 gave a remaining activity of 107%.
The remaining activity of CS(=O)(=O)CCNCc1ccc(-c2ccc3ncnc(Nc4ccc(OCc5cccc(F)c5)c(Cl)c4)c3c2)o1 is reported as 95.1%.
COc1cc2ncnc(Nc3ccc(OCc4ccccc4)cc3)c2cc1OC has a remaining activity of 102%.
The remaining activity of Cn1cnc2cc3c(Nc4cccc(Br)c4)ncnc3cc21 is reported as 102%.
CC(C)c1nn(-c2c(Cl)cccc2Cl)c2nc(Cc3ccc(OCCO)cc3)[nH]c(=O)c12 has a remaining activity of 91.7%.
CCOc1cc2ncnc(Nc3cccc(Br)c3)c2cc1OCC has a remaining activity of 89.7%.
With CN(C)CCCn1cc(C2=C(c3c[nH]c4ccccc34)C(=O)NC2=O)c2ccccc21 the remaining activity was 66%.
Cn1cc(/C=C2\C(=O)Nc3ccc(S(N)(=O)=O)cc32)c2ccccc21 has a remaining activity of 102%.
Nc1[nH]nc2nnc(-c3c(-c4ccccc4)nn4ccccc34)cc12 has a remaining activity of 87.3%.
COc1ccc(-c2cnc3c(-c4ccsc4)cnn3c2)cc1 has a remaining activity of 138%.
With Cc1nc(Nc2ncc(C(=O)Nc3c(C)cccc3Cl)s2)cc(N2CCN(CCO)CC2)n1 the remaining activity was 101%.
CC(=O)O/N=C1/C(c2c(O)[nH]c3cc(Br)ccc23)=Nc2ccccc21 has a remaining activity of 85.2%.
Cc1ccc(NC(=O)c2ccc(CN3CCN(C)CC3)cc2)cc1Nc1nccc(-c2cccnc2)n1 gave a remaining activity of 98.6%.
With CCC(=O)Nc1ccc2ncnc(Nc3cccc(Br)c3)c2c1 the remaining activity was 77.4%.
O=c1cc(N2CCOCC2)oc2c1ccc1ccccc12 has a remaining activity of 120%.
The remaining activity of COc1cc2ncnc(N3CCN(C(=O)Nc4ccc(Oc5ccccc5)cc4)CC3)c2cc1OC is reported as 77.4%.
The remaining activity of O=C1NC(=O)/C(=C/c2ccc3nccnc3c2)S1 is reported as 76%.
The remaining activity of CC(C)[C@H](CO)Nc1nc(Nc2cccc(Cl)c2)c2ncn(C(C)C)c2n1 is reported as 134%.
The remaining activity of O=C(Nc1ccc(Cl)cc1)c1ccccc1NCc1ccncc1 is reported as 137%.
C[S+]([O-])c1ccc(-c2nc(-c3ccncc3)c(-c3ccc(F)cc3)[nH]2)cc1 (stereo not shown) gave a remaining activity of 131%.

A few entries again (series 2):
With COc1cc(NC(C)CCCN)c2ncccc2c1 (stereo not shown) the viability was 94.8%.
The viability of CC(C)CCCC(C)N (stereo not shown) is reported as 98%.
The viability of COc1ccc(C2C(=O)c3ccccc3C2=O)cc1 is reported as 100%.
For C[C@]12CC[C@@H]3c4ccc(O)cc4CC[C@H]3[C@@H]1C[C@@H](O)[C@@H]2O, the viability was 98.4%.
For C[C@H](N)[C@H](O)c1cccc(O)c1, the viability was 91.5%.
CC[C@H](C)C(=O)O[C@H]1C[C@@H](C)C=C2C=C[C@H](C)[C@H](CC[C@@H]3C[C@@H](O)CC(=O)O3)[C@H]21 gave a viability of 91.9%.
CCCCOc1ccc(C(=O)CCN2CCCCC2)cc1 gave a viability of 93.9%.
The viability of CCc1cccc2c3c([nH]c12)C(CC)(CC(=O)O)OCC3 (stereo not shown) is reported as 105%.
C[C@]12CCC(=O)C=C1CC[C@@H]1[C@@H]2C(=O)C[C@@]2(C)[C@H]1CC[C@]2(O)C(=O)CO gave a viability of 95.2%.
